Measured values from different studies.
Several values in a cell are separate wells, animals, samples, runs or records. ± marks the error that the study gave.
NR4A1: Nuclear receptor subfamily 4 group A member 1 (NR4A1, Homo sapiens, UniProt P22736)
UniProt P22736, sequence (whole entry, looked up): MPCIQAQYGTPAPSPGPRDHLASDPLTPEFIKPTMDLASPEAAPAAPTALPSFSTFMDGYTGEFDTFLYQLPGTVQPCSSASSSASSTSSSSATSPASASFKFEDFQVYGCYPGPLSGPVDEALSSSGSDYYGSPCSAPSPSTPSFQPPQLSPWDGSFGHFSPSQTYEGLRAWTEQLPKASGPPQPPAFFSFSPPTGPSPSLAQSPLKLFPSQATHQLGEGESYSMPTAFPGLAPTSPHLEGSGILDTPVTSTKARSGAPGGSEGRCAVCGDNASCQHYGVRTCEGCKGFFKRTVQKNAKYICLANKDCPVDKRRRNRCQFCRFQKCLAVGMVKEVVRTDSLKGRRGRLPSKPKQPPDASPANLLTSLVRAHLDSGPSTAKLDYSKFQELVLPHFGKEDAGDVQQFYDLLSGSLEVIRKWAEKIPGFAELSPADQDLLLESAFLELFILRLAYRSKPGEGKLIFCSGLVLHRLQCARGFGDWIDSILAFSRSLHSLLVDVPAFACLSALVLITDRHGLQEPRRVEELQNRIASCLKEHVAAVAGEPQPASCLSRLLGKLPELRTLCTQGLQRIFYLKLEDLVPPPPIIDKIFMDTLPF
Tumor necrosis factor receptor superfamily member 9/Nectin-4: Tumor necrosis factor receptor superfamily member 9/Nectin-4 (Homo sapiens, UniProt Q07011+Q96NY8)
UniProt Q07011, sequence (whole entry, looked up): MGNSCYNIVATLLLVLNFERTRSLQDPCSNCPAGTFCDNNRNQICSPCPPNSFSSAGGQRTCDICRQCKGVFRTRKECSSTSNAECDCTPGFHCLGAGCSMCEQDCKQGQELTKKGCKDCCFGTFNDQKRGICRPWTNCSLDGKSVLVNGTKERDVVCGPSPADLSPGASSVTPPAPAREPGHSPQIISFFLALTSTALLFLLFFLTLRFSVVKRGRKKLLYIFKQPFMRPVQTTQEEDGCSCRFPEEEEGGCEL
UniProt Q96NY8, sequence (whole entry, looked up): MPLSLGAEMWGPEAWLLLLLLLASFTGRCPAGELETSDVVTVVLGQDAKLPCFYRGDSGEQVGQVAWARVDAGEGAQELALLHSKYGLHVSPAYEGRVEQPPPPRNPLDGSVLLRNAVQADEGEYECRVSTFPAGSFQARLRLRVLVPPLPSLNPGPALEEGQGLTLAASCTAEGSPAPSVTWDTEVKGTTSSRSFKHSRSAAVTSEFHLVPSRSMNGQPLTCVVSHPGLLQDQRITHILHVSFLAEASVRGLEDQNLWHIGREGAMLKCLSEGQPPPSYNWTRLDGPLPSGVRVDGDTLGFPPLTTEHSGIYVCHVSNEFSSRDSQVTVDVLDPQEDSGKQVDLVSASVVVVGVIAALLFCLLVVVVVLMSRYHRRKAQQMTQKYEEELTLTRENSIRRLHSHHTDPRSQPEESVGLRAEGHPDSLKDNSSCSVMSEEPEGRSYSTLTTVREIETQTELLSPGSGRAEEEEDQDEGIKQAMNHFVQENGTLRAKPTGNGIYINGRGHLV
Glutathione hydrolase 1 proenzyme without transmembrane domain: Glutathione hydrolase 1 proenzyme, without transmembrane domain (Homo sapiens, UniProt P19440)
UniProt P19440, sequence (whole entry, looked up): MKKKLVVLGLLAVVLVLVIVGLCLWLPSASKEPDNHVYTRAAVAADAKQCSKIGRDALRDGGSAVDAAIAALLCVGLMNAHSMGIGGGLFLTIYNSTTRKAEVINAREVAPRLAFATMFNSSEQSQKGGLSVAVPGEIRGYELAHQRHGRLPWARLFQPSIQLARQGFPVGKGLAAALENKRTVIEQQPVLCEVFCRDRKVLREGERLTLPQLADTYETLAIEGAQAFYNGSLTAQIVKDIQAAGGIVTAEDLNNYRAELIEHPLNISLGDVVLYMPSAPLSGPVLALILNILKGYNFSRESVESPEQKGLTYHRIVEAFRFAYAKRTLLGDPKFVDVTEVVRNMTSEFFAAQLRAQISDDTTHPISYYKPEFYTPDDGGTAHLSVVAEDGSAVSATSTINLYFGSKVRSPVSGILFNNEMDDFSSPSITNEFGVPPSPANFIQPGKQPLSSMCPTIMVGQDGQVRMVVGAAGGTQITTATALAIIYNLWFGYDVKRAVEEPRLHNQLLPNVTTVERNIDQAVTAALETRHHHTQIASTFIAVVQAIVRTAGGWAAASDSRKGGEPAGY
T1: ssDNA, aptamer; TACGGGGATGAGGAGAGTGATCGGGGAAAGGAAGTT
UniProt Q64663, sequence (whole entry, unmodified, looked up): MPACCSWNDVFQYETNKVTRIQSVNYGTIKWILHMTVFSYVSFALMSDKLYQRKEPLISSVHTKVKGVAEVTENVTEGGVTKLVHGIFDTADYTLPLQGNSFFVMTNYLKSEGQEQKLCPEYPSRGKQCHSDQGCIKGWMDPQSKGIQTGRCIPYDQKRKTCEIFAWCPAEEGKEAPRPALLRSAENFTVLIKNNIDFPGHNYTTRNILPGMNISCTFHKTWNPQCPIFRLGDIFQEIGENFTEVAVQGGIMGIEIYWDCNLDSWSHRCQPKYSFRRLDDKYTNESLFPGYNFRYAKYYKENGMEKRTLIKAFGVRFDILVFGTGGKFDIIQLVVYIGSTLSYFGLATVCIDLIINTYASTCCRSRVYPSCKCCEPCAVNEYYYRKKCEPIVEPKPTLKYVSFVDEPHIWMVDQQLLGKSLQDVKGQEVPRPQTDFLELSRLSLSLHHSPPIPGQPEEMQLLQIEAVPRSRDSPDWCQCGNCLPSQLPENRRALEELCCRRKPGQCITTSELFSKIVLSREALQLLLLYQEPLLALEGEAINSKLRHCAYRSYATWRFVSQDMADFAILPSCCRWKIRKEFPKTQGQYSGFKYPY
UniProt P51575, sequence (whole entry, unmodified, looked up): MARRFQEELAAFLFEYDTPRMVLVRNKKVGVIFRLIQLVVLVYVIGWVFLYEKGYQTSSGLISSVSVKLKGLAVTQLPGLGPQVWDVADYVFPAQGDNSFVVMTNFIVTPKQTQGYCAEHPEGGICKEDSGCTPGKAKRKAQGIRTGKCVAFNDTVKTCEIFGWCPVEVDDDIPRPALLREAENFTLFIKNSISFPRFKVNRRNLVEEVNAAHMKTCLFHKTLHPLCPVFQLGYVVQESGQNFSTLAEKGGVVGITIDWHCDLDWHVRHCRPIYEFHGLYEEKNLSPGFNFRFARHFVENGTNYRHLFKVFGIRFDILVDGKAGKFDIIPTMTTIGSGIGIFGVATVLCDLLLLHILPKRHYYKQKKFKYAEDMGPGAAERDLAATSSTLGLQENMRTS
UniProt Q96SW2, sequence (whole entry, looked up): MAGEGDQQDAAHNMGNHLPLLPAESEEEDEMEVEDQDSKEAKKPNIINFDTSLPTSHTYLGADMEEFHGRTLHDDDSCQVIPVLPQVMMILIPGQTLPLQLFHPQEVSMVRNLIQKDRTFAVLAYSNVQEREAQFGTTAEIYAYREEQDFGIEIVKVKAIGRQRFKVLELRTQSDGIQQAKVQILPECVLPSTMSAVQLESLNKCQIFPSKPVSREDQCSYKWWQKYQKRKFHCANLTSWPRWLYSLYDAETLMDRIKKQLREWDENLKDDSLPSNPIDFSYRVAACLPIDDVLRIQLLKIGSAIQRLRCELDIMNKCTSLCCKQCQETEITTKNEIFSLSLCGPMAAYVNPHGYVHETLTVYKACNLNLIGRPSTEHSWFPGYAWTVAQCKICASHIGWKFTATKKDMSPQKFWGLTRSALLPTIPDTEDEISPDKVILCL
UniProt Q96LB2, sequence (whole entry, looked up): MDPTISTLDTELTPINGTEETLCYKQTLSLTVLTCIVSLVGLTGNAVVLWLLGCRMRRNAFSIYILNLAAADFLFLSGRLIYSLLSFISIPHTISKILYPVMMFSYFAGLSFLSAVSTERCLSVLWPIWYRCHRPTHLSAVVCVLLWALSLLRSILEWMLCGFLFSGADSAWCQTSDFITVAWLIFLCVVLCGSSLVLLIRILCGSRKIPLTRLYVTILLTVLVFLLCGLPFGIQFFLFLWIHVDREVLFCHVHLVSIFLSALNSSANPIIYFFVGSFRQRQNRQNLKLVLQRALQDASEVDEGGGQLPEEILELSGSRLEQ
UniProt Q12791, sequence (whole entry, looked up): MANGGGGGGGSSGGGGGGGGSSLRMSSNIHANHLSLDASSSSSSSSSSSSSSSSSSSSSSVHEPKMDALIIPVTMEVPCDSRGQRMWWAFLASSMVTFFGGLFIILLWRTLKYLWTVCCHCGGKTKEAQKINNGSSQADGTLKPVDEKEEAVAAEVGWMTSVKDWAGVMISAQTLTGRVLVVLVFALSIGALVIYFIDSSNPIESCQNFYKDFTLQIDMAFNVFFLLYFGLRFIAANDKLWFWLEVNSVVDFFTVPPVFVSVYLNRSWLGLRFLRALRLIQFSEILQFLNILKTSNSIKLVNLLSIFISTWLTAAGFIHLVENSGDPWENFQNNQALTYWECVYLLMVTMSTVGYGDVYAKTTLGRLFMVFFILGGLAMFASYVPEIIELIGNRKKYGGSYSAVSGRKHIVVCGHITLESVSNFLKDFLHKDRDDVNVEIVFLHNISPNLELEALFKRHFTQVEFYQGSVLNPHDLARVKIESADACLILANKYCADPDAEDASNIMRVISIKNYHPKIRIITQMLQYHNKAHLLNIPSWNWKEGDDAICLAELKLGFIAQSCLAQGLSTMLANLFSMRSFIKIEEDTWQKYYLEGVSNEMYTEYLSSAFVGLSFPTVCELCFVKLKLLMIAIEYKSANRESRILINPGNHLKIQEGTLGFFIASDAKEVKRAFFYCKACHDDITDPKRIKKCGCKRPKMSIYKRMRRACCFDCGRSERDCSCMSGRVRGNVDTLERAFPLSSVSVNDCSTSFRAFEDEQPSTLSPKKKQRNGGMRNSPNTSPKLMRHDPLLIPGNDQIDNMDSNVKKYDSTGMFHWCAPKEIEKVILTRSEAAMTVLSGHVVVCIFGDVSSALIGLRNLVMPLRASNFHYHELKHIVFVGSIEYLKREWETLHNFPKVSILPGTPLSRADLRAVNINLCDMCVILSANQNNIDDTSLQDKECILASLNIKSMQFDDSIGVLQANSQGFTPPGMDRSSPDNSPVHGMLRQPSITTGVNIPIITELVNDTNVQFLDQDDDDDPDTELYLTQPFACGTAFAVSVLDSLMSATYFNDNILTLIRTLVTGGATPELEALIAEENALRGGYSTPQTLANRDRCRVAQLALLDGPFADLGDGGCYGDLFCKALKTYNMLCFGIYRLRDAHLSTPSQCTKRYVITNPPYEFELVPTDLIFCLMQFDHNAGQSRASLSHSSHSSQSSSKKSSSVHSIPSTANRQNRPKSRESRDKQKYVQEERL

`O=C(O)C1CCCNC1` (stereo not shown) — result for “normalised MST signal”: 1.03 (SLC6A6 (Homo sapiens, UniProt P31641, Y138A); binding, microscale thermophoresis; 250 µM, room temperature, added: 50 nM labelled protein; higher = more binding).
`Cc1cccc(C(=O)Nc2ccc3c(c2)CN(C2CCC(=O)NC2=O)C3=O)c1` (stereo not shown): “degradation rate constant” 1.8 h⁻¹ (Cereblon/Casein kinase I alpha (CSNK1A1/CRBN, Homo sapiens, UniProt P48729+Q96SW2); degrader, live-cell HiBiT kinetic; HEK293 LgBiT; 10 µM).
The specific binding of `Nc1ncnc2c1ncn2[C@@H]1O[C@H](COP(=O)(O)CP(=O)(O)OP(=O)(O)O)[C@@H](O)[C@H]1O` is reported as 1600 CCPM and 1170 CCPM and 4270 CCPM (P2X purinoceptor 1 (P2RX1, Homo sapiens, UniProt P51575, K140A); saturation binding; HEK293; 25 nM).
`COc1cc(CNC(=O)CCCC/C=C/C(C)C)ccc1O`: “open time constant” 57.4 ms (TRPV1 (Homo sapiens, UniProt Q8NER1); channel gating, single-channel inside-out patch; 100 nM, component 3 of four).
`Cc1cccc(/C=C/C(=O)Nc2cccc(-c3ccnc(N4CCC(O)CC4)c3)c2)c1` has a binding response of 89.8 RU (NR4A1; SPR; 10.0 µM).
`CCCC[C@@H]1NC(=O)[C@H](Cc2ccc(O)cc2)NC(=O)[C@@H]2CCCN2C(=O)[C@H](CC(=O)O)NC(=O)[C@H](C)NC(=O)[C@H](Cc2ccccc2)NC(=O)[C@@H]2CSCCC(=O)N3CN(CN(C3)C(=O)CCSC[C@@H](C(N)=O)NC1=O)C(=O)CCSCCC(=O)N[C@@H](CC(C)(C)C)C(=O)N1CCC[C@H]1C(=O)N[C@@H](CCC(=O)O)C(=O)N[C@H](CCCCNC(=O)CCc1cn(CCOCCOCCOCCN(CCOCCOCCOCCC(=O)N[C@H]3CSCCC(=O)N4CN5CN(C4)C(=O)CCSC[C@H](NC(=O)[C@@H](CC(=O)O)NC(=O)[C@H](Cc4cccc6ccccc46)NC(=O)[C@@H]4CCCN4C3=O)C(=O)N[C@@H](CCSC)C(=O)N[C@@H](CCCCNC(=N)N)C(=O)N[C@@H](CC(=O)O)C(=O)N[C@@H](Cc3c[nH]c4ccccc34)C(=O)N[C@@H](CO)C(=O)N[C@@H]([C@@H](C)O)C(=O)N3CCC[C@H]3C(=O)N3C[C@H](O)C[C@H]3C(=O)N[C@@H](Cc3c[nH]c4ccccc34)C(=O)N[C@H](C(N)=O)CSCCC5=O)CCOCCOCCOCCn3cc(CCC(=O)NCCCC[C@H]4NC(=O)[C@H](CCC(=O)O)NC(=O)[C@@H]5CCCN5C(=O)[C@H](CC(C)(C)C)NC(=O)CCSCCC(=O)N5CN6CN(C5)C(=O)CCSC[C@H](NC(=O)[C@H](Cc5ccc(O)cc5)NC(=O)[C@@H]5CCCN5C4=O)C(=O)N[C@@H](Cc4ccccc4)C(=O)N[C@@H](C)C(=O)N[C@@H](CC(=O)O)C(=O)N4CCC[C@H]4C(=O)N[C@@H](Cc4ccc(O)cc4)C(=O)N[C@@H](CCCC)C(=O)N[C@H](C(N)=O)CSCCC6=O)nn3)nn1)C(=O)N1CCC[C@H]1C(=O)N[C@@H](Cc1ccc(O)cc1)C(=O)N2` has an Emax of 67 fold (Tumor necrosis factor receptor superfamily member 9/Nectin-4; reporter gene, agonist; HT-1376 coculture with reporter cells; reference: background).
`CC(=O)N[C@H](C(=O)N1C[C@H](O)C[C@H]1C(=O)NCc1ccc(-c2scnc2C)cc1)C(C)(C)SCCCCCCNC(=O)C[C@@H]1N=C(c2ccc(Cl)cc2)c2c(sc(C)c2C)-n2c(C)nnc21` has a −TΔS of -4.75 ± 0.02 kcal/mol (VHL/BRD3, BD1; with Elongin B/C (Homo sapiens, UniProt P40337+Q15059); ternary complex binding, ITC; 25 °C, added: VHL-ElonginB-ElonginC titrated into compound:PROTAC:Brd3^BD1 complex).
The activation of `COc1cccc2c(Nc3ccc4[nH]c(C(=O)N/N=C/c5ccc(SC)cc5)cc4c3)cc(C)nc12` is reported as 1.08 ± 0.08 fold (NR4A1; reporter gene, NBRE reporter full-length; 1 µM; reference: vehicle).
`Cn1cc(-c2ccc(-c3cncc(Cl)c3N3CCC4(CCNC4=O)CC3)cc2)cn1`: “log2 fold change” 1.55 (COLO 205; gene expression, microarray, measured: EGLN3 mRNA; concentration not given, 2 h; reference: untreated cells).
`CC1CCCN(C(=O)c2cc3ncccn3n2)C1` (stereo not shown) — result for “log fold enrichment”: 0.0887 (FBXW7 (Homo sapiens, UniProt Q969H0); binding, affinity selection mass spectrometry; reference: other proteins in batch).
For `O=C(O)c1ccc(Nc2ncc3c(n2)-c2ccc(Cl)cc2C(c2c(F)cccc2F)=NC3)cc1`, the remaining activity was 90% (PRK2(h); kinase activity; 1 µM).
`[O-][S+]1CCCCS1` (stereo not shown) — result for “SOD1 monomer fraction”: 16.5% (SOD1 (Homo sapiens, UniProt P00441, G94A); LC-MS; brain homogenate; 500 µM, 1 h, 37 °C).
Under protein level, `COc1cccc2c1OCC(C(=O)Nc1ccc3c(c1)CN(C1CCC(=O)NC1=O)C3=O)=C2` (stereo not shown) is recorded as “no effect” (GSPT1/CRBN (Homo sapiens, UniProt P15170+Q96SW2); degrader, Western blot, measured: GSPT1/CRBN; A2780 and OCI-Ly3; concentration not given, 24 h).
Under “log2 fold change”, `CCN1CCC[C@H]1CNC(=O)c1c(O)c(Cl)cc(Cl)c1OC` is recorded as 0.045 (MRGPRX1 (Homo sapiens, UniProt Q96LB2); β-arrestin recruitment, TANGO luminescence; concentration not given; reference: basal luminescence).
With `NC/C(=C\F)COc1cccc(Cn2c(=S)[nH]c(=O)c3[nH]cnc32)c1` the H2O2 consumption was 121% (Myeloperoxidase (MPO, Homo sapiens, UniProt P05164); enzyme activity, inhibitor, H2O2 electrode; 0.028 µM).
For `Cc1cc2c(cc1N1C(=O)c3cccc4c(CCCO)ccc(c34)C1=O)n(C)c(=O)n2C` (racemic), the inhibition was 75% (Bromodomain-containing protein 2, BD1 (BRD2, Homo sapiens, UniProt P25440); binding, BROMOscan binding; 100 nM).
With `Nc1ncnc2c1ncn2[C@@H]1O[C@H](CO)[C@@H](O)[C@H]1O` the Kd was 54 µM (T1, ssDNA, aptamer; molecular beacon fluorescence quenching).
`COc1ccc(Cc2nnc(NS(=O)(=O)c3ccc(N)cc3)s2)cc1` has a Kii of 105 ± 14 µM (Glutathione hydrolase 1 proenzyme without transmembrane domain; GSH hydrolysis, uncompetitive inhibitor; 37 °C, binds gamma-glutamyl enzyme, added: GSH 5-20 µM).
`CCCC[C@@H]1NC(=O)[C@H](Cc2ccc(O)cc2)NC(=O)[C@@H]2CCCN2C(=O)[C@H](CC(=O)O)NC(=O)[C@H](C)NC(=O)[C@H](Cc2ccccc2)NC(=O)[C@@H]2CSCCC(=O)N3CN(CN(C3)C(=O)CCSC[C@@H](C(=O)N[C@@H](C)C(N)=O)NC1=O)C(=O)CCSC[C@H](NC(C)=O)C(=O)N[C@@H](CC(C)(C)C)C(=O)N1CCC[C@H]1C(=O)N[C@@H](CCCCNC(=O)CCc1cn(CCOCCOCCOCCOCCOCCC(=O)N[C@H]3CSCCC(=O)N4CN5CN(C4)C(=O)CCSC[C@H](NC(=O)[C@@H](CC(=O)O)NC(=O)[C@H](Cc4cccc6ccccc46)NC(=O)[C@@H]4CCCN4C3=O)C(=O)N[C@@H](CCSC)C(=O)N[C@@H](CCCCNC(=N)N)C(=O)N[C@@H](CC(=O)O)C(=O)N[C@@H](Cc3c[nH]c4ccccc34)C(=O)N[C@@H](CO)C(=O)N[C@@H]([C@@H](C)O)C(=O)N3CCC[C@H]3C(=O)N3C[C@H](O)C[C@H]3C(=O)N[C@@H](Cc3c[nH]c4ccccc34)C(=O)N[C@H](C(N)=O)CSCCC5=O)nn1)C(=O)N[C@H](C)C(=O)N1CCC[C@H]1C(=O)N[C@@H](Cc1ccc(O)cc1)C(=O)N2` gave an Emax of 37 fold (Tumor necrosis factor receptor superfamily member 9/Nectin-4; reporter gene, agonist; HT-1376 coculture with reporter cells; reference: background).
`COc1cc(F)ccc1-c1ncnc(Nc2cccc(C[S@](C)(=N)=O)c2)n1` has a remaining activity of 87% (ACVR1B (Homo sapiens, UniProt P36896); kinase activity; 10 µM, added: 10 µM ATP).
`Cc1nc(CSc2nc(SCc3ccc(C(C)C)cc3)nc(=O)[nH]2)cs1` — result for “mean relaxed DNA”: 0.3% (TOP2A (Homo sapiens, UniProt P11388); DNA relaxation; 500 µM).
For `CCCCCCCCC(=O)c1cc(O)c(O)c(O)c1`, the activation was 1.64 fold (NR4A1; reporter gene, Gal4 hybrid reporter; 10 µM; reference: vehicle).
The spectral count of `C#CCOc1ccccc1N1CCN(C(=O)c2cccc(S(=O)(=O)n3cnc(C4CC4)n3)c2)CC1` is reported as 111 (Cystatin-B (CSTB, Homo sapiens, UniProt P04080); label-free LC-MS/MS chemoproteomics; COLO 205; 100 µM, 4 h, 37 °C).
For `CCCC(CCC)c1nc2c(Nc3ccc(C#CCCCCCCCCN)cc3)nc3ccccc3c2[nH]1`, off-target affinity read “inactive” (HTR5A (Homo sapiens, UniProt P47898); PDSP screening).
`Nc1ncnc2c1ncn2[C@@H]1O[C@H](COP(=O)(O)OP(=O)(O)OP(=O)(O)O)[C@@H](O)[C@H]1O` gave a normalized current of 0.964 and 0.971 and 1 (P2X purinoceptor 7 (P2rx7, Rattus norvegicus, UniProt Q64663, I214A/R125A); ion current, agonist, two-electrode voltage clamp; Xenopus laevis oocytes; 900 µM; reference: highest concentration response).
For `CC(C)c1ccccc1-c1ccc2c(c1)N(Cc1noc(C3CCC3)n1)C(=O)CO2`, ATG14L-Beclin1 interaction read “active” (Beclin 1-associated autophagy-related key regulator, with Beclin 1 (ATG14, Homo sapiens, UniProt Q6ZNE5); NanoBRET; 100 µM; reference: DMSO).
With `CN(C)C(=O)C(CCN1CCC(O)(c2ccc(Cl)cc2)CC1)(c1ccccc1)c1ccccc1` the V1/2 was -7.82 mV (Calcium-activated potassium channel subunit alpha-1, with LRRC26 γ1 subunit (KCNMA1, Homo sapiens, UniProt Q12791); ion current, inside-out patch, fit of G-V curve; BKα/γ1 channel; 30 µM, added: nominally 0 Ca2+).
The Kii of `Nc1ccc(S(=O)(=O)Nc2nnc(Cc3ccccc3)s2)cc1` is reported as 242 ± 6 µM (Glutathione hydrolase 1 proenzyme without transmembrane domain; GSH hydrolysis, uncompetitive inhibitor; 37 °C, binds gamma-glutamyl enzyme, added: GSH 5-20 µM).

A few entries again:
`Cc1cccc(/C=C/C(=O)Nc2cccc(-c3ccnc(N4CCC(O)CC4)c3)c2)c1` has a binding response of 89.8 RU (NR4A1; SPR; 10.0 µM).
The specific binding of `Nc1ncnc2c1ncn2[C@@H]1O[C@H](COP(=O)(O)CP(=O)(O)OP(=O)(O)O)[C@@H](O)[C@H]1O` is reported as 1600 CCPM and 1170 CCPM and 4270 CCPM (P2X purinoceptor 1 (P2RX1, Homo sapiens, UniProt P51575, K140A); saturation binding; HEK293; 25 nM).
`CCCC[C@@H]1NC(=O)[C@H](Cc2ccc(O)cc2)NC(=O)[C@@H]2CCCN2C(=O)[C@H](CC(=O)O)NC(=O)[C@H](C)NC(=O)[C@H](Cc2ccccc2)NC(=O)[C@@H]2CSCCC(=O)N3CN(CN(C3)C(=O)CCSC[C@@H](C(N)=O)NC1=O)C(=O)CCSCCC(=O)N[C@@H](CC(C)(C)C)C(=O)N1CCC[C@H]1C(=O)N[C@@H](CCC(=O)O)C(=O)N[C@H](CCCCNC(=O)CCc1cn(CCOCCOCCOCCN(CCOCCOCCOCCC(=O)N[C@H]3CSCCC(=O)N4CN5CN(C4)C(=O)CCSC[C@H](NC(=O)[C@@H](CC(=O)O)NC(=O)[C@H](Cc4cccc6ccccc46)NC(=O)[C@@H]4CCCN4C3=O)C(=O)N[C@@H](CCSC)C(=O)N[C@@H](CCCCNC(=N)N)C(=O)N[C@@H](CC(=O)O)C(=O)N[C@@H](Cc3c[nH]c4ccccc34)C(=O)N[C@@H](CO)C(=O)N[C@@H]([C@@H](C)O)C(=O)N3CCC[C@H]3C(=O)N3C[C@H](O)C[C@H]3C(=O)N[C@@H](Cc3c[nH]c4ccccc34)C(=O)N[C@H](C(N)=O)CSCCC5=O)CCOCCOCCOCCn3cc(CCC(=O)NCCCC[C@H]4NC(=O)[C@H](CCC(=O)O)NC(=O)[C@@H]5CCCN5C(=O)[C@H](CC(C)(C)C)NC(=O)CCSCCC(=O)N5CN6CN(C5)C(=O)CCSC[C@H](NC(=O)[C@H](Cc5ccc(O)cc5)NC(=O)[C@@H]5CCCN5C4=O)C(=O)N[C@@H](Cc4ccccc4)C(=O)N[C@@H](C)C(=O)N[C@@H](CC(=O)O)C(=O)N4CCC[C@H]4C(=O)N[C@@H](Cc4ccc(O)cc4)C(=O)N[C@@H](CCCC)C(=O)N[C@H](C(N)=O)CSCCC6=O)nn3)nn1)C(=O)N1CCC[C@H]1C(=O)N[C@@H](Cc1ccc(O)cc1)C(=O)N2` has an Emax of 67 fold (Tumor necrosis factor receptor superfamily member 9/Nectin-4; reporter gene, agonist; HT-1376 coculture with reporter cells; reference: background).
For `CCCCCCCCC(=O)c1cc(O)c(O)c(O)c1`, the activation was 1.64 fold (NR4A1; reporter gene, Gal4 hybrid reporter; 10 µM; reference: vehicle).
